Measurements of several laboratories.
Protocols differ between the studies behind these lines. ± marks the error that the study gave.
ADORA1: Adenosine receptor A1 (ADORA1, Homo sapiens, UniProt P30542)
SLC10A2: Ileal sodium/bile acid cotransporter (SLC10A2, Homo sapiens, UniProt Q12908)
T1: SNCA 5' UTR IRE RNA, 2-aminopurine at bulged A (Homo sapiens); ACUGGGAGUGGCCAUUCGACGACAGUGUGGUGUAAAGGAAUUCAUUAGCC
T2: DNA aptamer; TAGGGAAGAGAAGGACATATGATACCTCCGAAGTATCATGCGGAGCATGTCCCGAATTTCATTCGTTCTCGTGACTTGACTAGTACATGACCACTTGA

N=C(N)NCCC[C@H](NC(=O)[C@H](CC(=O)O)NC(=O)[C@@H]1CSCC(=O)NCC(=O)N[C@@H](Cc2c[nH]cn2)C(=O)N[C@H](Cc2ccccc2)C(=O)N[C@@H](CCCNC(=N)N)C(=O)N[C@H](Cc2c[nH]c3ccccc23)C(=O)N1)C(=O)N[C@@H](Cc1ccccc1)C(=O)NCC(N)=O — activation (MC3R (Homo sapiens, UniProt P41968); cAMP accumulation, agonist; HEK293 expressing MC3R; 10 µM; relative to: MT-II): 30%
CCCCCCOc1ccc(C(=O)OCCN2CC=CCC2)cc1 — dissociation half-time ratio (CHRM1 (Homo sapiens, UniProt P11229); added: [3H]-NMS; relative to: xanomeline over cpd): ~6
Nc1nc2ccccc2n1Cc1ccccc1 — binding (Beta-secretase 1, mature ectodomain (BACE1, Homo sapiens, UniProt P56817); surface plasmon resonance; concentration not given): binds
CC(=O)Nc1ccc(-c2c(C#N)c(N)nc(SCc3ccccc3)c2C#N)cc1 — Emax (ADORA1; cAMP, agonist): 141%
CCCCCCCCO[C@@H]1O[C@H](CO)[C@H](O)C[C@H]1O[C@@H]1O[C@@H](C)[C@@H](O)[C@@H](O)[C@@H]1O — kon (ABO (Homo sapiens, UniProt P16442, G235S/G268A/L266M/R176G); binding, methyl-TROSY NMR titration; added: saturating UDP-Glc): 3.3e+06 M⁻¹ s⁻¹
Cc1cc(C#CC2(O)CCCCC2)cc2c1cc(C(=O)O)n2-c1cccc(Cl)c1 — ΔH (Microphthalmia-associated transcription factor, residues 1-296 (Homo sapiens, UniProt O75030); binding, isothermal titration calorimetry; 25 °C): -10.1 ± 1.46 kcal/mol
CN(C)c1nc(N)c2nc(-n3nccn3)n(C)c2n1 — binding free energy (ADORA2A (Homo sapiens, UniProt P29274); radioligand displacement; HEK293 cell membranes; 25 °C, added: [3H]ZM241385): -8.31 ± 0.07 kcal/mol
[11CH3]Nc1ccc(-c2nc3ccc(O)cc3o2)cn1 — effect size of DVR (APP (Homo sapiens, UniProt P05067); binding, PET; Alzheimer's disease patients, hippocampus; unit not given; relative to: control subjects): 2.78
O=C(CSc1nnc(-c2ccncc2)n1-c1ccc(Br)cc1)Nc1ccc2cn[nH]c2c1 — EC50 (T1, SNCA 5' UTR IRE RNA, 2-aminopurine at bulged A (Homo sapiens); fluorescence titration; apparent): 2900 nM
CN(C)CCCCOc1ccc2cc(CN)ccc2c1 — relative kcat/Km (Primary amine oxidase, liver isozyme (Bos taurus, UniProt Q29437); substrate, fluorescence; relative to: benzylamine): 920
CCCn1c(=O)c2[nH]c(-c3ccc(OCC(=O)NCCNC(=O)CCCCCNC(=O)CCCCCNS(=O)(=O)c4cccc5c(N(C)C)cccc45)cc3)nc2n(CCC)c1=O — maximal inhibition (ADORA1; radioligand binding, whole-cell binding; CHO-A1; 2 h, added: [3H]DPCPX; relative to: specific binding, 10 µM XAC): 81 ± 0.9%
CCc1nc2cc3ccccc3cc2cc1C(=O)N1CCC[C@H]1C(=O)N[C@@H](CCC/C=C/CCC[C@H](NC(=O)[C@@H]1CCCN1C(=O)c1cc2cc3ccccc3cc2nc1CC)C(=O)N[C@@H](CCCCN)C(=O)NCCCN)C(=O)N[C@@H](CCCCN)C(=O)NCCCN — residence time ((CCUG)10 RNA; SPR): 50 s
CCNC(=O)[C@H]1O[C@@H](n2cnc3c(Nc4ccc(I)cc4)ncnc32)[C@H](O)[C@@H]1O — koff (ADORA3 (Homo sapiens, UniProt P0DMS8); kinetic radioligand binding; 10 °C, no GTP, added: [3H]PSB-11): 0.00014 ± 1e-05 s⁻¹
OC(Cc1cc(-c2ccc(C(O)C(F)(F)F)s2)sc1-c1ccc(-c2sc(-c3ccc(C(O)C(F)(F)F)s3)cc2CC(O)C(F)(F)F)s1)C(F)(F)F (stereo not shown) — Kd ratio (Microtubule-associated protein tau, 0N4R isoform, aggregated (MAPT, Homo sapiens, UniProt P10636); binding, fluorescence; 40% sucrose tau fraction; relative to: 40% over 20% fraction): 9
C[C@H](CCC(=O)N[C@@H](CCC(=O)Nc1cncc(Br)c1)C(=O)O)[C@H]1CC[C@H]2[C@@H]3[C@H](O)C[C@@H]4C[C@H](O)CC[C@]4(C)[C@H]3CC[C@]12C — Kt (SLC10A2; transport, substrate, LC-MS/MS; ASBT-MDCK cells): 33 µM
Cc1ccc(C(C)C)cc1.[C-]#[O+].[C-]#[O+].[C-]#[O+].[Cl-].[Cl-].[Cl-].[Re+].[Ru+2].c1cnc(-c2ncccn2)nc1 — binding constant (Albumin (ALB, Homo sapiens, UniProt P02768); tryptophan fluorescence quenching): 28800 M⁻¹
O=C([O-])CN1CCN(CC(=O)[O-])CCN(C(CCC(=O)NCCCCCN(CCCC[C@H](NC(=O)N[C@@H](CCC(=O)O)C(=O)O)C(=O)O)C(=O)c2ccc(I)cc2)C(=O)O)CCN(CC(=O)[O-])CC1.[68Ga+3] (stereo partly shown) — tumour-to-background ratio (FOLH1 (Homo sapiens, UniProt Q04609); PET/CT; prostate cancer patients, primary prostate lesions; mean, lesion SUVmax; relative to: gluteal muscle SUVmean): 30.5
O=C1C=CC2(c3coc4cc(O)ccc4c3=O)c3cc(-c4coc5cc(O)ccc5c4=O)ccc3OC2C1 (stereo not shown) — Km (PRXC1A (Armoracia rusticana, UniProt P00433); oxidation, substrate): 694 ± 36 µM
CC1(C)CCN(Cc2ccc(C(=O)NC[C@]3(O)CCCN(c4cc(NCc5ccccc5)ncn4)C3)c(O)c2)CC1 — remaining activity (JAK1 (Homo sapiens, UniProt P23458); kinase activity, radiometric; 10 µM, added: 10 µM ATP): 102%
CCC(=C(c1ccc(Cl)cc1)c1ccc(OCCN2CCOCC2)cc1)c1ccc(OC)cc1 — β-galactosidase activity fold (Estrogen receptor (ESR1, Homo sapiens, UniProt P03372); reporter gene, agonist, yeast estrogen screen; 1 µM; relative to: DMSO): 6.46
O=C(c1ccc(-c2cnn3c2CN(C(=O)C(F)F)[C@H](Cc2ccccc2)C3)cc1)N1CCCc2ccccc21 — activity (PRKN/UBB (Homo sapiens, UniProt O60260+P0CG47); not specified; concentration not given): inactive
C[C@@H]1O[C@@H](O[C@@H]2C(=O)c3c(O)cc(O)cc3O[C@@H]2c2ccc(O)cc2)[C@H](O)[C@H](O)[C@H]1O — binding site number (PTPN1 (Homo sapiens, UniProt P18031); fluorescence quenching; concentration not given): 1.18
CC(CCC(=O)NC(CCC(=O)Nc1ccccc1O)C(=O)O)C1CCC2C3C(O)CC4CC(O)CCC4(C)C3CCC12C (stereo not shown) — Kt (SLC10A2; transport, substrate, LC-MS/MS; ASBT-MDCK cells): 5.57 µM
CC(C=O)Cc1ccc(C(C)(C)C)cc1 (stereo not shown) — fold increase (Olfactory receptor 2T4 (OR2T4, Homo sapiens, UniProt Q8NH00); GFP reporter, agonist; yeast olfactory receptor sensor; relative to: DMSO): > 2 fold
CC(=O)[C@H]1CC[C@H]2[C@@H]3CCC4=CC(=NOCC(=O)O)CC[C@]4(C)[C@H]3CC[C@]12C — Kd (T2, DNA aptamer; plate-ELAA; NaCl 100 mM): 2.03 nM
Cc1ccc2ccc3ccc(C)nc3c2n1.Cc1ccc2ccc3ccc(C)nc3c2n1.O.[Cl-].[Cl-].[Cl-].[Yb+3] — α-helical content (Albumin (ALB, Bos taurus, UniProt P02769); circular dichroism; 0.7 µM): 48.7%
O=C(Nc1nc2ccccc2s1)C1CCN(S(=O)(=O)c2ccc(F)c(Cl)c2)CC1 — activity (N-acyl-phosphatidylethanolamine-hydrolyzing phospholipase D (Homo sapiens, UniProt Q6IQ20); enzyme activity; concentration not given, added: PED-A1 substrate): no effect
CCC(=C(c1ccc(O)cc1)c1ccc(OCCN(C)CCOCCOCCOCCOCCOCCOCCOCCOCCOCCN(C)CCOc2ccc(C(=C(CC)c3ccccc3)c3ccc(O)cc3)cc2)cc1)c1ccccc1 (mixture of isomers) — relative binding affinity (ESR2 (Homo sapiens, UniProt Q92731); radioligand competition binding; concentration not given, Z-Z/Z isomer form, added: [3H]estradiol tracer; relative to: estradiol): 7.92 ± 1.5%

For quick reference, copied from above:
Cc1ccc(C(C)C)cc1.[C-]#[O+].[C-]#[O+].[C-]#[O+].[Cl-].[Cl-].[Cl-].[Re+].[Ru+2].c1cnc(-c2ncccn2)nc1 — binding constant (Albumin (ALB, Homo sapiens, UniProt P02768); tryptophan fluorescence quenching): 28800 M⁻¹
O=C([O-])CN1CCN(CC(=O)[O-])CCN(C(CCC(=O)NCCCCCN(CCCC[C@H](NC(=O)N[C@@H](CCC(=O)O)C(=O)O)C(=O)O)C(=O)c2ccc(I)cc2)C(=O)O)CCN(CC(=O)[O-])CC1.[68Ga+3] (stereo partly shown) — tumour-to-background ratio (FOLH1 (Homo sapiens, UniProt Q04609); PET/CT; prostate cancer patients, primary prostate lesions; mean, lesion SUVmax; relative to: gluteal muscle SUVmean): 30.5
